Experimental data gathered from unrelated publications.
Numbered parts are unrelated; each lists some results of a single study. Changes are numbered by the printed parent chain.

Series 1 — technique: protein binding microarray; form: double-stranded DNA, one strand shown; sample: in vitro; concentration: not given; baseline: not given; reading: higher = stronger binding
Target: Histone acetyltransferase KAT6A, winged helix 1, GST fusion (KAT6A, Homo sapiens, UniProt Q92794, residues 1-85)
Setting: 8-mer, flanks averaged, mean of 2 arrays, mostly near background
Target sequence (chain): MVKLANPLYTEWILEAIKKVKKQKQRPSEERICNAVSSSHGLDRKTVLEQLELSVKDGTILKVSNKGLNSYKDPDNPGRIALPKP
| Oligonucleotide | E-score |
| --- | --- |
| TCGTCAGA | -0.172 |
| CACCGCGC | 0.444 |
| CTATGCCA | -0.227 |
| GCATTGGA | -0.0705 |
| GGCGAGCA | 0.077 |
| ATCCTGGC | -0.139 |

Series 2 — technique: DHFR PCA, deep sequencing; sample: yeast; together with: (+)-ABA 0.11 µM; baseline: wild-type fitted maximum; reading: higher = stronger binding
Target: ABI1, truncated, D143A, DHFR fusion (Arabidopsis thaliana)
Setting: methotrexate growth selection, single substitutions
Starting sequence: PYL1, truncated, DHFR fusion (Arabidopsis thaliana); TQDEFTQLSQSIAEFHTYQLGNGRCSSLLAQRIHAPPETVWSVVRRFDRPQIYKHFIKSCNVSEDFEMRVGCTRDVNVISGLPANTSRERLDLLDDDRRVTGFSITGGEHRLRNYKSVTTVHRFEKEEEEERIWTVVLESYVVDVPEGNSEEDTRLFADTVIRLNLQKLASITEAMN
| Variant | relative binding score |
| --- | --- |
| S11D | 32.5% |
| E125V | 48.9% |
| S140T | 0.625% |
| Q167S | 24.6% |
| Q2I | 72.1% |

Series 3 — technique: protein-binding microarray; form: double-stranded DNA, one strand shown; sample: in vitro; concentration: 2200 nM top; setting: 60-bp whole probe; together with: salmon DNA 0.4 mg/ml; baseline: random background probes; reading: higher = stronger binding; all sequences stand within: GCCTAGCAC … GTCTTGATTCGCTTGACGCTGCTG
Target: Interferon regulatory factor 7, full length, phosphomimetic (IRF7, Homo sapiens, UniProt Q92985, residues 1-503, S471D/S472D/S475D/S476D/S477D/S483D/S484D/S487D)
Residues (chain): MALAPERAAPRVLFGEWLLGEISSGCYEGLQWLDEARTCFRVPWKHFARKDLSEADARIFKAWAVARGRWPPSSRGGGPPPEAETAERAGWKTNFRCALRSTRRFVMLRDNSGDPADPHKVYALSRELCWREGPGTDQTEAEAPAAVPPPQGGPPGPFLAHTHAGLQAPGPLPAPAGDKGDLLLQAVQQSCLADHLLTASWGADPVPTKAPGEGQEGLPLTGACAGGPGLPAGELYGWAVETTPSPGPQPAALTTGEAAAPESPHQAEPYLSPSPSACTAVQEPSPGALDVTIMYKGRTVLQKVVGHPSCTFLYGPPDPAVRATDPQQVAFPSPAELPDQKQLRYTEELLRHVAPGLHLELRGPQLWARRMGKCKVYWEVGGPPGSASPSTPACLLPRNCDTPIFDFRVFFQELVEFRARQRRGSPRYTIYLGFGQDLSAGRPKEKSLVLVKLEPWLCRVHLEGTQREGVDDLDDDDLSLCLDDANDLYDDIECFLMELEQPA
| Oligonucleotide | fitted relative affinity [z-score] |
| --- | --- |
| TTAGGTATCCTTTTCGTTTAGTGCTAG | 3.38 |
| TTAGGTTTCGGTATCGGTAAGTGCTAG | 7.75 |
| ACAGAACTCAACTGTCTGCCTGTGCTA | 0.373 |
| TTAGGTCTCGGTCTCGGTTAGTGCTAG | 0.809 |
| GACGAACTGAGTCTCGAGTCGTGCTAG | 0.376 |
| GACGGTTACGGACTGGGGACGTGCTAG | -0.525 |
| CCCTGTGTCCACAGCTGGATGTGCTAG | -0.162 |
| CACCAGCGAGGGCCCGGGAGGTGCTAG | -0.659 |
| TCATTTTAGCTTCTCAAACTGTGCTAG | 2.57 |

Further values, each from its own experiment
| Substance | target | assay | system | setting | scale | measurement | value |
| --- | --- | --- | --- | --- | --- | --- | --- |
| PhoQ, residues 284 288 289 292 302 303 SLKLQV | PhoP, residues 12 14 15 18 19 NQGLL (Escherichia coli, UniProt P23836) | Sort-seq, measured: YFP reporter | E. coli | PhoQ-PhoP variant library, together with: 10 µM Mg2+ | baseline: high Mg2+ state, higher = stronger signaling | fold induction | 5.93 |

Some of these lines once more (series 2):
| Variant | relative binding score |
| --- | --- |
| E125V | 48.9% |
| S140T | 0.625% |
| Q167S | 24.6% |
